Published values from different studies.
Lines come from different studies, so protocols differ. ± marks the error that the study gave.

SMILES = C[C@H]1CO[C@@H]2Cn3cc(C(=O)NCc4ccc(F)cc4F)c(=O)c(O[C@@H]4O[C@H](C(=O)O)[C@@H](O)[C@H](O)[C@H]4O)c3C(=O)N12; test = LC-MS/MS; system = human, UGT1A1 wild-type, plasma; setting = intramuscular, dose not given, 1 weeks after first injection; quantity = plasma concentration; value = 63.1 ± 76.2 ng/mL
SMILES = CCC(=O)N(C)c1ccc(Cl)c(Cl)c1; test = LC-MS/MS; system = mouse C57BL/6 female, plasma; setting = subcutaneous, 2 mg/kg; quantity = AUC extrapolated; value = 4.55%
SMILES = CN(C)C(=O)c1ccnc(N2Cc3cn(Cc4ccc(F)cc4F)nc3C2)n1; system = rat, brain; setting = 10 mg/kg, 24 h; quantity = unbound Cmin; value = 128 nM
SMILES = OCc1cn(Cc2ccc(-c3noc(-c4ccc(OCC[18F])c(C(F)(F)F)c4)n3)cc2)nn1; system = rat, pancreas; setting = intravenous, 30 min; quantity = tracer uptake; value = 1.89 %ID/g
SMILES = C[C@@H](C(=O)O)N(CC(=O)N(CCS)CC(N)=O)C(=O)CN(C(=O)CN(C(=O)CN(C(=O)CN(C(=O)CN(C(=O)CN(C(=O)CN(C(=O)CN(C(=O)CN(C(=O)CN(C(=O)CN(C(=O)CN(CCS)C(=O)CN1CCNCC1)[C@@H](C)c1ccccc1)[C@@H](C)C(=O)O)[C@@H](C)C(=O)O)[C@@H](C)c1ccccc1)[C@@H](C)C(=O)O)[C@@H](C)C(=O)O)[C@@H](C)c1ccccc1)[C@@H](C)C(=O)O)[C@@H](C)C(=O)O)[C@@H](C)c1ccccc1)[C@@H](C)C(=O)O; system = distilled water; quantity = water solubility; value = ≥ 15 mM
SMILES = N=C(N)NCCC[C@@H]1NC(=O)[C@H](Cc2c[nH]c3ccccc23)NC(=O)[C@@H](CC2CCCCC2)NC(=O)[C@@H]2CCCN2C(=O)[C@@H](NC(=O)CCc2ccccc2)CCCNC1=O; system = C57BL/6J mice, brain; setting = oral, 1 mg/kg; quantity = elimination half-life; value = 165 min
SMILES = O=C([O-])c1cccc(CN(CCN(Cc2cn(Cc3ccccc3)nn2)Cc2cccc(C(=O)[O-])n2)Cc2cn(Cc3ccccc3)nn2)n1.[177Lu+3]; system = human serum; setting = 24 h, 37 °C, with: 177Lu; quantity = radiometal bound to chelator; value = 46%
SMILES = COc1cc2c(cc1OC)CN(CCCCn1ccc3cc(OCC[18F])ccc31)C2; system = ICR mice, male, stomach; setting = intravenous, 15 min; quantity = uptake; value = 2.87 ± 0.32 %ID/organ
SMILES = CCCC[C@H](NC(=O)CNC(=O)CNC(=O)CN1CCN(CC(=O)O)CCN(CC(=O)O)CC1)C(=O)N[C@H]1CC(=O)NCCCC[C@@H](C(N)=O)NC(=O)[C@H](Cc2c[nH]c3ccccc23)NC(=O)[C@H](CCCNC(=N)N)NC(=O)[C@@H](Cc2ccccc2)NC(=O)[C@H](Cc2c[nH]cn2)NC1=O [copper-64 labelled]; system = female C57 mouse, B16/F1 melanoma; setting = intravenous, 0.037 MBq, 2 h; how to read = relative to: tumour over muscle; quantity = uptake ratio; value = 42.7
SMILES = OCc1[nH]nc2c1N=C(c1ccccc1Cl)c1cnc(N3CCOCC3)cc1N2; system = human male, urine; setting = oral, 10 mg, 0-72 h; how to read = relative to: dose; quantity = urinary excretion; value = 0.46%
SMILES = COc1cc(NC(C)=O)c2c(c1O)-c1c(OC)c(OC)cc3c1C(C2)N(C)CC3 (stereo not shown); system = rat kidney homogenate; setting = 5 µg/mL, 40 d, -20 °C, long-term storage; quantity = remaining compound; value = 86.7 ± 1%
SMILES = C=C(C)C(=O)Nc1ccc(-c2c(-c3ccc(Oc4nccc(C)n4)cc3)c3c(N)ncnc3n2C)cc1; system = cynomolgus monkey, plasma; setting = intravenous, dose not given; quantity = half-life; value = 84 min
SMILES = C[C@@H]1Cc2c([nH]c3ccccc23)[C@@H](c2c(F)cc(/C=C/C(=O)O)cc2F)N1C12CC(C1)C2; system = Balb/c nude mouse, MCF7 xenograft, plasma; setting = oral, 10 mg/kg, steady state; quantity = AUC(0-t); value = 21300 ng·h/mL
SMILES = N#CC1(c2ccc3c(N)ncnn23)OC(COP(=O)(O)O)C(O)C1O (stereo not shown); test = LC-MS/MS; system = CD-1 mouse, liver; setting = oral, 100 mg/kg of remdesivir; quantity = AUC(0-t); value = 247000 nmol·h/kg
SMILES = NC[C@@H](C(=O)Nc1ccc(-c2cn[nH]c2)cc1)c1ccccc1; test = OECD 405, refers to: Chemosis; system = New Zealand White rabbit; setting = topical, 0.1 %, 80 h, day 4; how to read = direction not given; quantity = ocular irritation score; value = 0
SMILES = CCC/C(=C\C1=C(OC)C(=O)c2ccccc2C1=O)C(=O)NOC; system = mouse plasma; setting = 1 µM, 37 °C; quantity = t1/2; value = 17 min

Excerpt of the above:
SMILES = COc1cc(NC(C)=O)c2c(c1O)-c1c(OC)c(OC)cc3c1C(C2)N(C)CC3 (stereo not shown); system = rat kidney homogenate; setting = 5 µg/mL, 40 d, -20 °C, long-term storage; quantity = remaining compound; value = 86.7 ± 1%
